Results from different studies.
Every numbered part comes from another study and shows a few of its results, in no order. Changes are numbered by the printed parent chain.

Series 1
Target: CCNB2, cyclin fold, Cln2 fusion (human)
Method: yeast growth competition, sequencing
Sample: yeast
Notes: weak parent motif
Reference: not given
Direction: higher = stronger binding
Starting sequence: PKN2 docking peptide (human); VSAVQKLDFSDTM
| Change | normalised enrichment score |
| --- | --- |
| VSAVQKLDFSDTF [M13F] | -0.157 |
| RSAVQKLDFSDTM [V1R] | 0.0812 |
| VSAIQKLDFSDTM [V4I] | -0.0303 |
| VSAVQKLDVSDTM [F9V] | -0.382 |
| VSAVQKLAFSDTM [D8A] | 0.00375 |
| VSAVQKLDFSDEM [T12E] | 0.676 |
| VSAVQKLDFSKTM [D11K] | -0.256 |
| VSAVAKADFSDTM [Q5A L7A] | 0.0297 |

Series 2
Target: ABI1, truncated, D143A, DHFR fusion (Arabidopsis thaliana, UniProt P49597)
Method: DHFR PCA, dose-response
Sample: yeast
Notes: Hill fit, mean, not affinity
With: (+)-ABA, dose series
Direction: lower = more sensitive
Starting sequence: PYL1, truncated, DHFR fusion (Arabidopsis thaliana, UniProt Q8VZS8); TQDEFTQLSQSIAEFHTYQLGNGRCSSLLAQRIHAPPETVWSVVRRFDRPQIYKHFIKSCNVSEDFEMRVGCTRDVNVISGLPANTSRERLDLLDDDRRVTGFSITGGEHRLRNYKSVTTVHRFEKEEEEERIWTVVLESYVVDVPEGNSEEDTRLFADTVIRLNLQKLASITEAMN
| Change | ABA EC50 |
| --- | --- |
| I133A | 1.01 µM |
| I33L | 189 µM |
| K58L | 21.8 µM |
| K58S | 3.13 µM |
| G102S | 2.3 µM |
| P37H | 71.4 µM |
| D65M | 8.66 µM |
| L28Y | 44.3 µM |
| D65S | 3.07 µM |
| E38A | 4.97 µM |

Series 3
Target: Histone acetyltransferase KAT6A, winged helix 2, GST fusion (KAT6A, Homo sapiens, UniProt Q92794, residues 85-181)
Method: protein binding microarray
Molecule type: double-stranded DNA, one strand shown
Sample: in vitro
Concentration: not given
Notes: 8-mer, flanks averaged, mean of 2 arrays, mostly near background
Reference: not given
Direction: higher = stronger binding
Construct (chain): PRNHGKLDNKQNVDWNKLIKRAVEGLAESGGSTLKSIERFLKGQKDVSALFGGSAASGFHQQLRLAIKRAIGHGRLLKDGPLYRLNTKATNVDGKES
| Oligonucleotide | E-score |
| --- | --- |
| GAAGAGAA | 0.115 |
| CCACTTCA | 0.0572 |
| CCACGGAC | -0.111 |
| AGACCACC | -0.0455 |
| ATTAGGCA | 0.0163 |
| CCCCTGAA | 0.128 |

Mixed results
| Molecule | target | assay | system | setting | scale | measurement | result |
| --- | --- | --- | --- | --- | --- | --- | --- |
| PhoQ, residues 284 288 289 292 302 303 SVTLVV | PhoP, residues 12 14 15 18 19 NMSFL (Escherichia coli, UniProt P23836) | Sort-seq, refers to: YFP reporter | E. coli | PhoQ-PhoP variant library, with: 10 µM Mg2+ | reference: high Mg2+ state, higher = stronger signaling | fold induction | 4.69 |

Excerpt of the above (series 1):
| Change | normalised enrichment score |
| --- | --- |
| VSAVQKLAFSDTM [D8A] | 0.00375 |
| VSAVQKLDFSDEM [T12E] | 0.676 |
